Published values collected from several papers.
Compare with care: the assays were run in different laboratories. Values joined by “and” are separate records of one study, mostly repeats; a detail may differ.
Target: Serine/threonine-protein kinase DCLK2 (DCLK2, Homo sapiens, UniProt Q8N568)

Structure (SMILES) | test | setting | how to read | quantity | result
CCn1cc(C(=O)O)c(=O)c2c(N)c(F)c(NC3CCCCC3)cc21 | kinase activity | 0.1 µM, with: ATP at Km |  | inhibition | -3.8%
NC(=O)[C@@H](O)C[C@H]1CCc2sc3ncnc(O[C@H]4CC[C@H](N5CCOCC5)CC4)c3c21 | enzyme activity, inhibitor | 10 µM |  | inhibition | 16%
CN1CCN(Cc2ccc(-c3ccc(CO[C@H]4CCC[C@@H]4NC(=O)c4cc(-c5cnn(C)c5)cnc4N)cc3)cc2)CC1 | enzyme activity, inhibitor | 0.1 µM |  | inhibition | 2%
O=C=[N][Ru-4]123([n]4c5ccc(O)cc5c5c6c(c7cc(F)c[n+]1c7c54)C(=O)NC6=O)[S+]1CC[S+]2CC[S+]3CC1 (stereo not shown) | enzyme activity | 100 nM, human enzyme, with: 10 µM ATP | reference: untreated | remaining activity | 97%
C=CC(=O)N1CCCC(n2c(=O)c3ncccc3n(Cc3ccc(Oc4ccccc4)cc3)c2=O)C1 (stereo not shown) | cell-free assay, competition with immobilised ligand | 1 µM |  | remaining binding | 100%
CNC(=O)C1CCN(c2cc(C)c(F)cc2NC(=O)c2ccc(-c3cc(O)ccc3C)c(C)c2)CC1 | binding, competition with immobilised ligand | 1 µM |  | remaining binding | 98%
Nc1ncc2c(n1)-c1c([nH]c3ccc(C4=CCOCC4)cc13)CCC2 | binding, competition with immobilised ligand | 1 µM |  | remaining binding | 100%
COc1c(Cl)cccc1Nc1c(-c2ccncc2C#C[C@@]2(C)CCCN2C(=O)/C=C/CN(C)C)[nH]c2c1C(=O)NCC2 | binding, competition with immobilised ligand | 3 µM |  | remaining binding | 97%
Cc1cnc2nc1Nc1cccc(c1)COC/C=C/COCc1cc(ccc1OCCN1CCOCC1)N2 | binding, competition with immobilised ligand | 0.1 µM |  | remaining binding | 100%
C=CC(=O)N1Cc2nc(-c3cc(-c4cc(Cl)cnc4Cl)c(F)cc3F)n(-c3ccncn3)c2C1 | cell-free assay, inhibitor | 1 µM |  | inhibition | 11.6%
Cc1nc2c(F)cc(-c3nc(Nc4ccc(CNC(=O)CCCCCCC(=O)NO)cc4)ncc3F)cc2n1C(C)C | enzyme activity, inhibitor | 1 µM |  | inhibition | 41%
COc1cc(Nc2nccc(-c3cnn4nc(OC)ccc34)n2)cc(C(F)(F)F)c1 | binding, competition with immobilised ligand | 1 µM |  | remaining binding | 90%
Cc1ccc(-c2c(/C=C(\C#N)C(=O)NC(C)C)n(CCCO)c3ncnc(N)c23)cc1 | cell-free assay, competition with immobilised ligand | 1 µM |  | remaining binding | 100%
COCC12C(=O)NC3C4(C(OC)CC1O)C1CC5(O)C(OC)C(O)C(OC(C)=O)(C1C5OC(=O)c1ccccc1)C3(O)C(OC)C24 (stereo not shown) | kinase activity, inhibitor, ProQinase kinase profiling | 25 µM | reference: control | remaining activity | 74% and 78%
Cc1cccc(O[C@H]2CCC[C@@H](C(C)CNCc3ccncc3)C2)c1 (relative stereo) | enzyme activity, inhibitor | 10 µM |  | inhibition | -3%
C=CC(=O)Nc1cccc(-c2cnc3[nH]cc(C(=O)NC(C)(C)C)c3n2)c1 | enzyme activity, inhibitor | 0.1 µM |  | inhibition | 1%

Some of these lines once more:
Structure (SMILES) | test | setting | how to read | quantity | result
COc1cc(Nc2nccc(-c3cnn4nc(OC)ccc34)n2)cc(C(F)(F)F)c1 | binding, competition with immobilised ligand | 1 µM |  | remaining binding | 90%
Cc1ccc(-c2c(/C=C(\C#N)C(=O)NC(C)C)n(CCCO)c3ncnc(N)c23)cc1 | cell-free assay, competition with immobilised ligand | 1 µM |  | remaining binding | 100%
COCC12C(=O)NC3C4(C(OC)CC1O)C1CC5(O)C(OC)C(O)C(OC(C)=O)(C1C5OC(=O)c1ccccc1)C3(O)C(OC)C24 (stereo not shown) | kinase activity, inhibitor, ProQinase kinase profiling | 25 µM | reference: control | remaining activity | 74% and 78%
